Results collected from several papers.
Protocols differ between the studies behind these lines. Numbers after ± are the reported error.
SIRT6: NAD-dependent protein deacylase sirtuin-6 (SIRT6, Homo sapiens, UniProt Q8N6T7)
RIPK1: Receptor-interacting serine/threonine-protein kinase 1 (RIPK1, Homo sapiens, UniProt Q13546)
fdhA: fdhA (Pseudomonas putida, UniProt P46154)
BLVRB: Flavin reductase (NADPH) (BLVRB, Homo sapiens, UniProt P30043)
MAPK8: Mitogen-activated protein kinase 8 (MAPK8, Homo sapiens, UniProt P45983)
BLVRA: BLVRA (Homo sapiens, UniProt P53004)

By UniProt entry, the sequences of proteins in these tests, tags left out. Residues count along the entry.
UniProt Q8N6T7, whole entry: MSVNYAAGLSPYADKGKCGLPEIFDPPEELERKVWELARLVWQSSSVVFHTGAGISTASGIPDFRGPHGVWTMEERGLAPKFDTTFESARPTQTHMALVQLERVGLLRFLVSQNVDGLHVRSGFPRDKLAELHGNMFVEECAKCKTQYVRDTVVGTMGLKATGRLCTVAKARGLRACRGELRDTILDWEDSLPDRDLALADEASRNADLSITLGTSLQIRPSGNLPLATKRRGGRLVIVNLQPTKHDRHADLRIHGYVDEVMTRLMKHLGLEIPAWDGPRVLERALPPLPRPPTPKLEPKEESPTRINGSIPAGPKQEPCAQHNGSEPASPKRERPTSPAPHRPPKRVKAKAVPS
UniProt Q13546, whole entry: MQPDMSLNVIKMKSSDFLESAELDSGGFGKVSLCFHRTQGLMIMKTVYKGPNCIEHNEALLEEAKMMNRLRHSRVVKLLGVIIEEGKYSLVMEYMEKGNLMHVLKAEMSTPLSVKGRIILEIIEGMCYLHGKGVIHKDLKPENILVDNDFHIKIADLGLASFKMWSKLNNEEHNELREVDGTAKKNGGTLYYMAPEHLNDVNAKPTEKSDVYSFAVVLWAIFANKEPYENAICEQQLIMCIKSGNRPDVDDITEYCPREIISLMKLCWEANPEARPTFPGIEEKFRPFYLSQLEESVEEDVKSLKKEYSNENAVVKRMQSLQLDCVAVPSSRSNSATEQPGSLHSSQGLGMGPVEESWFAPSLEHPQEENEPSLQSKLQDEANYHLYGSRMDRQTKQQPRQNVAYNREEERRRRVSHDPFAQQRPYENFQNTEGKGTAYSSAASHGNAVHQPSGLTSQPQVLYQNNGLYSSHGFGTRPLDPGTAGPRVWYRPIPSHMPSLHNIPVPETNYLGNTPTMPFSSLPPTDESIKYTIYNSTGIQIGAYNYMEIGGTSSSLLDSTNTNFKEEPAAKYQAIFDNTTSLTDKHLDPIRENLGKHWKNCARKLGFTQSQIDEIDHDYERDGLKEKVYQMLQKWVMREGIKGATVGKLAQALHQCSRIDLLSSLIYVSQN
UniProt P46154, whole entry: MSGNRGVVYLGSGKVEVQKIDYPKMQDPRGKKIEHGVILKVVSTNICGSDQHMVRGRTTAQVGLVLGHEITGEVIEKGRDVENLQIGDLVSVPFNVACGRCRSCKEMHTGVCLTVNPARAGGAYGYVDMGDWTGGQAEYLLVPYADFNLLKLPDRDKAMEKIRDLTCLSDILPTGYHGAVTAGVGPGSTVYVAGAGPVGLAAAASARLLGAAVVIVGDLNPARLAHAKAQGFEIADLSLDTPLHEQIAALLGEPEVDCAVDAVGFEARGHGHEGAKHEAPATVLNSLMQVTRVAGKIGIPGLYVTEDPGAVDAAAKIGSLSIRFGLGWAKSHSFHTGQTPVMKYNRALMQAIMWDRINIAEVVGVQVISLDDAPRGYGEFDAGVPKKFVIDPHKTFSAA
UniProt P30043, whole entry: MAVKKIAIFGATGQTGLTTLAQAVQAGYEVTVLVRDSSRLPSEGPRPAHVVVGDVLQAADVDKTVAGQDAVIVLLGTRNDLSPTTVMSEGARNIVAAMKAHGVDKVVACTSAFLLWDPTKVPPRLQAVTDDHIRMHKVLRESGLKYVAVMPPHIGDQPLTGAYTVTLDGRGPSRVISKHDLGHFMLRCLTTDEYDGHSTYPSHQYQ
UniProt P45983, 1-384 isoform 3: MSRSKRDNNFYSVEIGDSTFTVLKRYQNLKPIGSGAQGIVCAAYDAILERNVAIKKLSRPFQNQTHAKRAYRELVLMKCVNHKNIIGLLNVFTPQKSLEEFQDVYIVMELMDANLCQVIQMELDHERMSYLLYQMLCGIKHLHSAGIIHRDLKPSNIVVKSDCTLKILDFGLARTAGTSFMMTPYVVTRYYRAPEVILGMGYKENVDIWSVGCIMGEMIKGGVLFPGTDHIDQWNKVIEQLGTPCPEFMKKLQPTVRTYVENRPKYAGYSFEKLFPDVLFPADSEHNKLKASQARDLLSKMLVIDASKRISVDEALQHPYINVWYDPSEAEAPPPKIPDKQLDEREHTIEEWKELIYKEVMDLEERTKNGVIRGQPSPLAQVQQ
UniProt P53004, whole entry, looked up: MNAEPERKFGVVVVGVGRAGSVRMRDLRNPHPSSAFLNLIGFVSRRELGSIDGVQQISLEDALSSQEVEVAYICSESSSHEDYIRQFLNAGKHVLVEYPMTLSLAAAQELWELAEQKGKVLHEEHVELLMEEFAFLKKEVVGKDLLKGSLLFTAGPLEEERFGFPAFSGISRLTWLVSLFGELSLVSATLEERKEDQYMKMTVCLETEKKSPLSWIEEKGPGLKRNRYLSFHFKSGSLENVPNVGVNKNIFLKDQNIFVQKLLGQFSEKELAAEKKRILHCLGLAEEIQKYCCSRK
UniProt P09917, whole entry: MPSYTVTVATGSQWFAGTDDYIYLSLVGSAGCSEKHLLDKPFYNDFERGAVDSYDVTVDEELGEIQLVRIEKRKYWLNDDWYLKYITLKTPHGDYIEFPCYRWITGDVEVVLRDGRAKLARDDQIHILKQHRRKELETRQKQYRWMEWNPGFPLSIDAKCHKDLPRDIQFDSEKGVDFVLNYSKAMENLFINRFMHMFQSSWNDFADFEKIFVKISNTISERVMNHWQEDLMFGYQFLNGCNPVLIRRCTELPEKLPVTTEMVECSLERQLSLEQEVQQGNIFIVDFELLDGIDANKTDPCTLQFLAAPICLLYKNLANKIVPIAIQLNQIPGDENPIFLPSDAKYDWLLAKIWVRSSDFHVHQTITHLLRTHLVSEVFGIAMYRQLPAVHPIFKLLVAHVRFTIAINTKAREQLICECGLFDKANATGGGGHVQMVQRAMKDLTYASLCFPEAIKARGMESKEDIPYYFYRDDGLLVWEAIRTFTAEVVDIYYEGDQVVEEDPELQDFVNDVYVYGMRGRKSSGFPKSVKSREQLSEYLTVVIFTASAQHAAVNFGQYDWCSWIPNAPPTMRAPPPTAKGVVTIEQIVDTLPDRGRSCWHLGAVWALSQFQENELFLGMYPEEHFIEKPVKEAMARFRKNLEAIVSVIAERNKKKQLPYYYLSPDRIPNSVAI
UniProt Q9GZT9, whole entry: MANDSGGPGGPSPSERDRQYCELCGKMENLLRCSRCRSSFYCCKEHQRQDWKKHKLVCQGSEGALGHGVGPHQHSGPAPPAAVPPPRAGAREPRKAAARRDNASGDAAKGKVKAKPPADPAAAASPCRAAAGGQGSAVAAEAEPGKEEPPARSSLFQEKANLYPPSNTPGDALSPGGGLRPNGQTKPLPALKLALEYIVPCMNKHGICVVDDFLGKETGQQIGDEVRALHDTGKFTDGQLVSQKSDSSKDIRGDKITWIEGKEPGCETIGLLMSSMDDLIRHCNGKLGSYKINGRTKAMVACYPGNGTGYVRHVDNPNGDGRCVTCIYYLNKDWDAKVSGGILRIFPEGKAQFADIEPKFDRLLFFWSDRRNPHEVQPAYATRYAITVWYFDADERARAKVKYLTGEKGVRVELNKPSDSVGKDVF
UniProt B2RXH2, whole entry: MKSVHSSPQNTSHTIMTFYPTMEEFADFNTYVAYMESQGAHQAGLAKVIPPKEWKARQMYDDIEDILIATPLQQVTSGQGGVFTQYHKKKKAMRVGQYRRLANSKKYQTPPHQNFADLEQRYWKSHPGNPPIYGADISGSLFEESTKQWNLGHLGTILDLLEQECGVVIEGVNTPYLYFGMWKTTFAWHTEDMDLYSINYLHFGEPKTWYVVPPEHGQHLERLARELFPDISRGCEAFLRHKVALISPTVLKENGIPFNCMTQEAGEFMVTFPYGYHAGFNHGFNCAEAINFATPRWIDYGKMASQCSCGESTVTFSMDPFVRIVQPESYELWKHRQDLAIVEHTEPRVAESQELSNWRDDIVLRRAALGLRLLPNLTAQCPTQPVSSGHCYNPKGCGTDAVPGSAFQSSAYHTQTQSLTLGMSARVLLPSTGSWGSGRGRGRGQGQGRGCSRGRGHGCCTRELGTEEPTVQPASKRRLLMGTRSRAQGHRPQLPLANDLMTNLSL

SMILES | tested on | test | test system | conditions | how to read | quantity | result
Nc1nonc1-n1cc(C(=O)N/N=C/c2cccc([N+](=O)[O-])c2)nn1 | SIRT6 | deacetylase activity, Fluor de Lys | – | 100 µM, together with: Ac-RHKK(Ac)-AMC substrate | – | remaining activity | 20.4 ± 5.14%
CC(=O)N1CC=C(c2cc3c(Nc4cc5ncsc5cc4F)ncnc3s2)CC1 | RIPK1 | kinase activity | – | 1 µM | relative to: control | remaining activity | 107 ± 4%
COc1cc([C@@H]2c3cc4c(cc3C=C(C=O)[C@H]2C(=O)OCCCCCCBr)OCO4)cc(OC)c1OC | Leishmania | – | mouse splenocytes | – | relative to: CC50 over amastigote EC50 | selectivity index | 2.6
Nc1ncc(-c2ccc3ncnc(N4CCc5cc(F)c(Cl)cc54)c3c2)cn1 | – | – | CD1 mouse, brain | intravenous, 5 mg/kg | – | Tmax | 4.98 min
COc1ccccc1Nc1c(C(=O)O)ccnc1C(=O)O | fdhA | inhibitor, spectrophotometric | – | 200 µM, counterscreen | – | remaining activity | 76%
Cc1c(-c2ccccc2)nn2c(=O)cc(-c3cccc(-c4nnn[nH]4)c3)[nH]c12 | BLVRB | – | – | concentration not given | – | remaining activity | 37%
Cc1cc(NC(=O)c2cccc(NC(=O)C3=CC(C)(C)CCC3=O)c2)ccc1Nc1nccc(-c2cccnc2)n1 | MAPK8 | kinase activity, inhibitor | – | 0.1829 µM, unit not given, together with: 10 mM GSH | relative to: DMSO | remaining activity | 0.738
O=C(NC1CC=C(c2cc3c(Nc4cc5ncsc5cc4F)ncnc3s2)CC1)NC1CCCCC1 (centres unmarked) | RIPK1 | kinase activity | – | 1 µM | relative to: control | remaining activity | 96 ± 2%
CSc1ccccc1Nc1c(C(=O)O)ccnc1C(=O)O | fdhA | inhibitor, spectrophotometric | – | 200 µM, counterscreen | – | remaining activity | 80%
Cc1ncsc1-c1ccc([C@H](C)NC(=O)[C@@H]2C[C@@H](O)CN2C(=O)[C@@H](NC(=O)CCCCCCC(=O)N2CCN(C[C@]3(C)CCC(c4ccc(Cl)cc4)=C(CN4CCN(c5ccc(C(=O)NS(=O)(=O)c6ccc(N[C@H](CCN7CCOCC7)CSc7ccccc7)c(S(=O)(=O)C(F)(F)F)c6)cc5)CC4)C3)CC2)C(C)(C)C)cc1 | – | measured: Cdkn2a | naturally aged mice, lung | intraperitoneal, 5 mg/kg every 3 days | – | mRNA level | no effect
O=C(O)c1cccc(-c2nc(-c3ccccc3F)c3sccn23)c1 | BLVRB | – | – | concentration not given | – | remaining activity | 47%
Nc1nonc1-n1cc(C(=O)N/N=C/c2ccccc2OC(F)(F)F)nn1 | SIRT6 | deacetylase activity, Fluor de Lys | – | 100 µM, together with: Ac-RHKK(Ac)-AMC substrate | – | remaining activity | 48.1 ± 1.02%
O=C(O)c1ccc(-c2nc(-c3ccccc3F)c3sccn23)cc1 | BLVRA | enzyme activity, inhibitor | – | 10 µM, together with: biliverdin IXα 25 µM | – | remaining activity | 96%
O=C(CCc1ccc(O)cc1O)c1ccc(O)cc1 | ALOX5 (Homo sapiens, UniProt P09917) | 5-LOX product formation, RP-HPLC | human PMNL | 10 µM, together with: A23187 and arachidonic acid | relative to: control | remaining activity | 60.1 ± 8.2%
C=CC(=O)N1CCC(c2cc(Nc3cc4n(n3)CCOC4)c3ncnn3c2)C1 (single isomer, unassigned) | Ramos | calcium flux, FLIPR | – | 2 h preincubation, together with: anti-IgM | – | maximum inhibition | 27.1%
O=C(O)c1ccccc1Nc1c(C(=O)O)ccnc1C(=O)O | Egl nine homolog 1 (EGLN1, Homo sapiens, UniProt Q9GZT9) | inhibitor, HTRF | – | 400 µM | – | remaining activity | 100%
COc1cc([C@@H]2c3cc4c(cc3[C@@H](C=C(C)C)[C@H]3COC(=O)[C@H]23)OCO4)cc(OC)c1OC | Leishmania infantum | – | promastigote, iRFP | – | – | EC50 | 14.5 ± 0.3 µM
O=C(O)c1ccnc(C(=O)O)c1Nc1ccc([N+](=O)[O-])cc1 | fdhA | inhibitor, spectrophotometric | – | 200 µM, counterscreen | – | remaining activity | 100%
COC(=O)[C@@]1(C)C=C(C(=O)Nc2cccc(C(=O)NC34CC(Nc5nccc(-c6cccnc6)n5)(C3)C4)c2)C(=O)CC1 | MAPK8 | kinase activity, inhibitor | – | 8.363e-05 µM, unit not given, together with: 10 mM GSH | relative to: DMSO | remaining activity | 1.02
CCc1c(-c2ccco2)nn2c(=O)cc(-c3cccc(C(=O)O)c3)[nH]c12 | BLVRA | enzyme activity, inhibitor | – | 10 µM, together with: biliverdin IXα 25 µM | – | remaining activity | 94%
O=C(O)c1ccc(Nc2c(C(=O)O)ccnc2C(=O)O)cc1 | KDM4E (Homo sapiens, UniProt B2RXH2) | inhibitor, FDH-coupled spectrophotometry, measured: formaldehyde | – | 200 µM | – | remaining activity | 13%
CCc1c(-c2ccco2)nn2c(=O)cc(-c3ccc(C(=O)O)cc3)[nH]c12 | BLVRB | – | – | concentration not given | – | remaining activity | 37%
COc1ccc(CNc2c(C(=O)O)ccnc2C(=O)O)cc1 | fdhA | inhibitor, spectrophotometric | – | 200 µM, counterscreen | – | remaining activity | 100%

For quick reference, copied from above:
SMILES | tested on | test | test system | conditions | how to read | quantity | result
O=C(O)c1ccc(-c2nc(-c3ccccc3F)c3sccn23)cc1 | BLVRA | enzyme activity, inhibitor | – | 10 µM, together with: biliverdin IXα 25 µM | – | remaining activity | 96%
O=C(CCc1ccc(O)cc1O)c1ccc(O)cc1 | ALOX5 (Homo sapiens, UniProt P09917) | 5-LOX product formation, RP-HPLC | human PMNL | 10 µM, together with: A23187 and arachidonic acid | relative to: control | remaining activity | 60.1 ± 8.2%
